{"data": "Measurements pooled from the literature", "NOD2 S933A LRR domain": "Nucleotide-binding oligomerization domain-containing protein 2, LRR domain (NOD2, Homo sapiens, UniProt Q9HC29, S933A)", "USP51 ZnF-UBD domain": "Ubiquitin carboxyl-terminal hydrolase 51, ZnF-UBD domain (USP51, Homo sapiens, UniProt Q70EK9)", "GAP50": "Glideosome-associated protein 50 (GAP50, Plasmodium falciparum, UniProt Q8I2X3)", "note": "Protocols differ between the studies behind these lines. ± marks the error that the study gave.", "UniProt Q70EK9, sequence (whole entry, looked up)": "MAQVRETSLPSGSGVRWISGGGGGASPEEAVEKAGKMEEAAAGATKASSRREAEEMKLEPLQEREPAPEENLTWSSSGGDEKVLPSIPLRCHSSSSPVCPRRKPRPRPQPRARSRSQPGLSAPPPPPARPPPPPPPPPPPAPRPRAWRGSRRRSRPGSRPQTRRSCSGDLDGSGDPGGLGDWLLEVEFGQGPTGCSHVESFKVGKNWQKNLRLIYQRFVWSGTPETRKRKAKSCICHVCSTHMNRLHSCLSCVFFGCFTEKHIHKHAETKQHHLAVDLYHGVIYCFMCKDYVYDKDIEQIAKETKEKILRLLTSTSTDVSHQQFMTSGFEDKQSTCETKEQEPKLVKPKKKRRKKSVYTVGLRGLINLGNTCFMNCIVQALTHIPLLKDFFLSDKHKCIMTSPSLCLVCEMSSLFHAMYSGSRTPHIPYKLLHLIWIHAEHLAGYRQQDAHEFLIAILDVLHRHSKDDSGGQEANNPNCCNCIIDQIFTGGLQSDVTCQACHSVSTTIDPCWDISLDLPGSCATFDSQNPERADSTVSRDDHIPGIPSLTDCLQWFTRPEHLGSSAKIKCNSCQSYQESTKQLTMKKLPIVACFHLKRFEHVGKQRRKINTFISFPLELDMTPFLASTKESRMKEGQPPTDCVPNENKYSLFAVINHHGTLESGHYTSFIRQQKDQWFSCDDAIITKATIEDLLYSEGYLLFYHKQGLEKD", "UniProt Q8I2X3, sequence (whole entry, looked up)": "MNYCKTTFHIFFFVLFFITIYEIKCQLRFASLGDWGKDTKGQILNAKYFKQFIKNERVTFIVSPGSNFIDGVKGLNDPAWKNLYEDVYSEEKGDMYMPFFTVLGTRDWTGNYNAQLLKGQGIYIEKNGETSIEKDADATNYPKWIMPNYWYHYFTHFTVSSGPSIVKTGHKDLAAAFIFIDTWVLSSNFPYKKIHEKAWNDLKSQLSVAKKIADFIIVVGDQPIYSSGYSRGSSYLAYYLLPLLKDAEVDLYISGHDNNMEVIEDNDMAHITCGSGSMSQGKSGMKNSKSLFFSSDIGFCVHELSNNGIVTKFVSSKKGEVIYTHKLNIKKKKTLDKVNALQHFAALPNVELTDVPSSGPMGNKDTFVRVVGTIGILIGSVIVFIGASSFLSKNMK", "UniProt Q9HC29, sequence (whole entry, unmodified, looked up)": "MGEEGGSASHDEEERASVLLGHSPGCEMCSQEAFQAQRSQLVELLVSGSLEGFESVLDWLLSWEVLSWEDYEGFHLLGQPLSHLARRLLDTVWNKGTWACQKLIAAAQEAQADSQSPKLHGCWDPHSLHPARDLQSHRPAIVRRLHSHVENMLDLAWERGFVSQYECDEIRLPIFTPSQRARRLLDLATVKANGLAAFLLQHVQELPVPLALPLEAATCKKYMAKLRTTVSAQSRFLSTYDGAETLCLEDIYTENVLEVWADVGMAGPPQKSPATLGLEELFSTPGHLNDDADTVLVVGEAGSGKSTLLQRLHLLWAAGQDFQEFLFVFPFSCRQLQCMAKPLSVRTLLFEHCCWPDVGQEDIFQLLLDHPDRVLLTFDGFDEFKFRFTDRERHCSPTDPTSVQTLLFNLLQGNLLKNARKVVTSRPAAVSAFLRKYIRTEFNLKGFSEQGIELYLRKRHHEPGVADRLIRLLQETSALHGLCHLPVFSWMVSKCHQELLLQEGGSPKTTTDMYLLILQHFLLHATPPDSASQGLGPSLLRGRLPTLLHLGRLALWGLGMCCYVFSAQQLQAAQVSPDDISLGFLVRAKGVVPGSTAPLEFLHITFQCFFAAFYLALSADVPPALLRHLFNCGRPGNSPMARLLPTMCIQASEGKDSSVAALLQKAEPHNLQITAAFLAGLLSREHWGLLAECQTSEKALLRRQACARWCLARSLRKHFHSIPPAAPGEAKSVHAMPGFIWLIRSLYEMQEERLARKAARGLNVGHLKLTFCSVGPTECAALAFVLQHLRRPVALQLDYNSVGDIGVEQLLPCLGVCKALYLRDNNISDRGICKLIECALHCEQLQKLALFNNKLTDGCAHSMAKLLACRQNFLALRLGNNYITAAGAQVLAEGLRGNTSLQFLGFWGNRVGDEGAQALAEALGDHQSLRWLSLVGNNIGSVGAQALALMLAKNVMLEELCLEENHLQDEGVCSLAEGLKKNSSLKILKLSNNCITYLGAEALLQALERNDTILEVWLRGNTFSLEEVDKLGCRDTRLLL", "UniProt P10636, sequence (whole entry, looked up)": "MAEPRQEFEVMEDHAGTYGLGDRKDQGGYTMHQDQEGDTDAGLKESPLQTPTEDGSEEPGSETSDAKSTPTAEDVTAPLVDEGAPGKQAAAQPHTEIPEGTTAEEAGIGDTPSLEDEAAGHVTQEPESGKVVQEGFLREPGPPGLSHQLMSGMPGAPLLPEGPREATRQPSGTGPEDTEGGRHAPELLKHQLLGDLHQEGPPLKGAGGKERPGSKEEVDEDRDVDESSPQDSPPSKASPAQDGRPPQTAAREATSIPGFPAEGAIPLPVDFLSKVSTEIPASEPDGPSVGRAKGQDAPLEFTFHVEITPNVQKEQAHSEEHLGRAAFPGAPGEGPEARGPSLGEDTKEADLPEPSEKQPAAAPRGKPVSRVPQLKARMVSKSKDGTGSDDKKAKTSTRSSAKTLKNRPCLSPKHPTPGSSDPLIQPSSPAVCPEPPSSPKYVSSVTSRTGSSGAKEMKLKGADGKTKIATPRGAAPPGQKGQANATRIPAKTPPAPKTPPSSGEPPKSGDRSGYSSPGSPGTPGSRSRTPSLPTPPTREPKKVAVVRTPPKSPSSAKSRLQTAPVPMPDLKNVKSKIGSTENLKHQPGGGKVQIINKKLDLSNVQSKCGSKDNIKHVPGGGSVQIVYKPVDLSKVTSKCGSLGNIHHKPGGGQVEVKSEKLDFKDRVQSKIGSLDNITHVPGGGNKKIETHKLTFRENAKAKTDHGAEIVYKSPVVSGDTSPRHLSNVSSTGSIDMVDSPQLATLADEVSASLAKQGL"}
{"Compound": "CC(=O)N[C@@H]1[C@@H](O)[C@H](O)[C@@H](CO)O[C@H]1O", "target": "NOD2 S933A LRR domain", "test": "surface plasmon resonance", "setting": "LRR mutant S933A", "Kd": "0.599 ± 0.089 µM"}
{"Compound": "Cc1sc2ncn(CC(=O)O)c(=O)c2c1C", "target": "USP51 ZnF-UBD domain", "Kd": "> 1000 µM"}
{"Compound": "c1coc(CNc2nc(N3CCCCC3)nc3ccccc23)c1", "target": "GAP50", "test": "binding, surface plasmon resonance", "setting": "1:1 binding model", "Kd": "24.5 µM"}
{"Compound": "CC(=O)NC1C(O)OC(CN)C(O)[C@@H]1O[C@H](C)C(=O)N[C@@H](C)C(=O)N[C@H](CCC(=O)O)C(N)=O (stereo partly shown)", "target": "NOD2 S933A LRR domain", "test": "surface plasmon resonance", "setting": "LRR mutant S933A", "Kd": "0.409 ± 0.029 µM"}
{"Compound": "N=c1n(CCN2CCCCC2)c2ccccc2n1CC(O)COc1ccc(Cl)cc1Cl (stereo not shown)", "target": "GAP50", "test": "binding, surface plasmon resonance", "setting": "1:1 binding model", "Kd": "56.3 µM"}
{"Compound": "Cc1cc2nc3c(=O)[nH]c(=O)nc-3n(C[C@H](O)[C@H](O)[C@H](O)COP(=O)(O)OP(=O)(O)OC[C@H]3O[C@@H](n4cnc5c(N)ncnc54)[C@H](O)[C@@H]3O)c2cc1C", "target": "human RBM38 and RBM24", "test": "binding, competition pulldown mass spectrometry", "test system": "SW-620 cell lysate", "Kd": "0.006 µM"}
{"Compound": "O=C(O)CCN1C(=O)c2ccccc2S1(=O)=O", "target": "USP51 ZnF-UBD domain", "Kd": "> 1000 µM"}
{"Compound": "O=C(O)Cc1cc(-c2ccc(C(=O)O)s2)sc1-c1ccc(-c2sc(-c3ccc(C(=O)O)s3)cc2CC(=O)O)s1", "target": "Microtubule-associated protein tau, 0N4R isoform, aggregated (MAPT, Homo sapiens, UniProt P10636)", "test": "binding, fluorescence", "test system": "40% sucrose tau fraction", "Kd": "1.28 µM"}
{"Compound": "Cc1cc(NCCc2ccccc2)nc(NC(=N)Nc2ccc(Cl)cc2)n1", "target": "GAP50", "test": "binding, surface plasmon resonance", "setting": "1:1 binding model", "Kd": "15.8 µM"}
{"Compound": "O=C(O)CCC(=O)c1cccs1", "target": "USP51 ZnF-UBD domain", "Kd": "> 1000 µM"}
{"note": "Repeated from above:"}
{"Compound": "c1coc(CNc2nc(N3CCCCC3)nc3ccccc23)c1", "target": "GAP50", "test": "binding, surface plasmon resonance", "setting": "1:1 binding model", "Kd": "24.5 µM"}
